Experimental data from different studies.
Each line is one published result; not all experiments were run side by side.

Cc1cc(-c2nnc(N)nc2-c2ccc(F)cc2)cc(Cl)n1
patients with immune-mediated AE (item: Hypothyroidism; IO-naive mCRPC patients, male; oral, dose not given, treatment-related, grade 1): 0%

C=CC(=O)NC1CCN(c2ncc3ncnc(Nc4ccc(Oc5ccc6c(c5)ncn6C)c(C)c4)c3n2)CC1
patients with Lymphadenopathy (male patients; oral, dose not given, on-treatment adverse events): 0%

FC(F)(F)c1ccc(CNc2ccc(Cc3c[nH]c4ncc(Cl)cc34)cn2)cn1
patients with treatment-related adverse event (item: alanine aminotransferase increased; non-TGCT solid tumour patients; oral, 1000 mg/day, grade 3 or higher): 2%

COc1cc(Nc2ncc3c(n2)-c2ccc(Cl)cc2C(c2c(F)cccc2OC)=NC3)ccc1C(=O)O
patients with adverse event (item: oral mucositis, grade 1; cancer patients, phase 1/2; dose not given, with: pembrolizumab): 25%

CNC(=O)c1ccc(-c2cnc3ncc(Cc4ccc5ncccc5c4)n3n2)cc1F
patients with adverse event (item: Nausea, all grades; cancer patients; oral, dose not given, dose escalation, any causality): 37%

O=C(Nc1nc2cccc(-c3ccc(CN4CCS(=O)(=O)CC4)cc3)n2n1)C1CC1
patients with TEAE (item: ankle fracture; rheumatoid arthritis patients; oral, 100 mg twice daily, 4 weeks): 0%

C[C@@H](c1ccc2nccn2c1)n1nnc2ncc(-c3cnn(C)c3)nc21
patients with adverse events (item: treatment-related grade ≥3 Anemia; EGFR-mutant MET-altered NSCLC; oral, dose not given, all): 1%

CNC(=O)c1cc(Oc2ccc(NC(=O)Nc3cc(C(C)(C)C)nn3-c3ccc4ncccc4c3)c(F)c2)ccn1
patients with grade 1 cardiac disorders (patients; oral, dose not given, cycles 1 and 2, Medium Cmax subgroup): 7%

COc1ccc([C@@H](O)c2cc(-c3ncnc4cc(N5CCOCC5)ccc34)c(F)cc2Cl)nn1
patients with at least 1 TEAE (locally advanced rectal cancer; all dose levels overall, with: capecitabine and radiotherapy): 100%

NC(=O)N1c2ccccc2C=Cc2ccccc21
patients with Hyperhidrosis (male patients; oral, dose not given, on-treatment adverse events): 7%

C[C@@H](Nc1cc(F)cc(F)c1)c1cc(C(=O)N(C)C)cc2c(=O)cc(N3CCOCC3)oc12
patients discontinuing for AE (item: Pruritus; advanced solid tumour patients; oral, dose not given, dose expansion): 0%

Cc1cc(NC2CCN(C(=O)OC3CCN(C(=O)/C=C/CN(C)C)C3)CC2)n2ncc(C(C)C)c2n1 (stereo not shown)
patients with adverse event (Phase I dose escalation CTCAE v4.0, item: Dizziness; patients with advanced solid tumours; dose not given, all dose schedules any grade): 11%

CCOc1c([C@H](C)n2nc(C)c3c(N)ncnc32)cc(Cl)c(F)c1[C@@H]1CNC(=O)C1
patients (item: QTcF above 500 ms; previously treated B-cell malignancy; oral, 10 mg once daily, baseline QTcF ≤450 ms): 0%
